Published values collected from several papers.
Each numbered part is a random draw from the data of one study; scales do not carry over between parts. Substitutions count along the parent as printed.

Block 1
Target: Prothrombin, mature alpha-thrombin (F2, Homo sapiens, UniProt P00734)
Technique: aptamer microarray, sandwich
Form: DNA with 2'F-ANA
Medium: in vitro
Concentration: 200 nM
Setting: whole 15-mer aptamer, many near background
Added: Cy3 exosite-II aptamer, 400 nM
Reading: higher = stronger binding
Strand: GGTTGGTGTGGTTGG
Modification	mean fluorescence intensity [a.u.]
2'F-ANA at 2 4 5 6 7 10 11 12 13 14	50.5
2'F-ANA at 5 6 8 9 11 12 15	119
2'F-ANA at 1 2 5 9 11 14 15	52.4
2'F-ANA at 1 3 4 7 9 10	70
2'F-ANA at 1 2 3 5 7 9 10 13	43.1
2'F-ANA at 1 2 3 4 6 8 9 10 13 14 15	52.4
2'F-ANA at 1 2 6 11 15	125
2'F-ANA at 3 6 9 11	946

Block 2
Target: Histone acetyltransferase KAT6A, both winged helices, GST fusion (KAT6A, Homo sapiens, UniProt Q92794, residues 1-181)
Technique: protein binding microarray
Form: double-stranded DNA, one strand shown
Medium: in vitro
Concentration: not given
Setting: 8-mer, flanks averaged, mean of 2 arrays, mostly near background
Reference: not given
Reading: higher = stronger binding
Target sequence (chain): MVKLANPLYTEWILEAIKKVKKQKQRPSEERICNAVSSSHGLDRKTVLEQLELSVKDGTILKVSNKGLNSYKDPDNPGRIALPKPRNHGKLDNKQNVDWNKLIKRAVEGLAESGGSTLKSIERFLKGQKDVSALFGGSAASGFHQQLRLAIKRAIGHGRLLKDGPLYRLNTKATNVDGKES
Strand	E-score
AGGTAACG	0.085
ACGTCCAC	-0.0699
CGCGCTTA	0.301
GCCCTAAC	-0.00762
GCATTCTA	-0.0924
AAGAGTAG	-0.16
CGTATTCC	0.0719
ACTCGCAC	0.12

Block 3
Target: CCNA1, cyclin fold, Cln2 fusion (human)
Technique: yeast growth competition, sequencing
Medium: yeast
Setting: weak parent motif
Reference: not given
Reading: higher = stronger binding
Starting sequence: ORC1 docking peptide (human); PRARKRLELGNLG
Substitution	normalised enrichment score
PRARKRLEDGNLG [L9D]	0.226
PRARKRLESGNLG [L9S]	0.589
PEARKRLELGNLG [R2E]	0.532
PRARRRLELGNLG [K5R]	0.874
PRARWRLELGNLG [K5W]	-0.155
PRARKRLELYNLG [G10Y]	0.969

Single results of other studies
Molecule	target	assay	test system	conditions	how to read	endpoint	result
PhoQ, residues 284 288 289 292 302 303 SQSLSM	PhoP, residues 12 14 15 18 19 AGCRL (Escherichia coli, UniProt P23836)	Sort-seq, measured: YFP reporter	E. coli	PhoQ-PhoP variant library, added: 10 µM Mg2+	reference: high Mg2+ state, higher = stronger signaling	fold induction	14.2

For quick reference, copied from above (block 3):
Substitution	normalised enrichment score
PEARKRLELGNLG [R2E]	0.532
PRARWRLELGNLG [K5W]	-0.155
PRARKRLELYNLG [G10Y]	0.969
PRARRRLELGNLG [K5R]	0.874
